# Results from different studies.
# Each numbered part is a random draw from the data of one study; scales do not carry over between parts.

# Study 1 — technique: RNA Bind-n-Seq; form: RNA; medium: in vitro; concentration: 200 nM; setting: whole 134-nt RNA, ends assumed; together with: 150 mM LiCl; baseline: input library; reading: higher = stronger binding; all molecules: 7-deaza-guanosine replaces G
# Target: Fragile X messenger ribonucleoprotein 1, C-terminal low-complexity region (Fmr1, Mus musculus, UniProt P35922)
# Shared flanks, not repeated: GGGAGUUCUACAGUCCGACGAUC … UGGAAUUCUCGGGUGUCAAGG
Strand,log2 enrichment
ACCAUGCAGGUGGUCAUCUUUGGGAAGUGGGGCAAGGGGGGGAUAGGGAGGGGGGUAACACUUUGGGAACAGGUGGUCCCAGGUCGUUUC,1.33
UUCUUGCCUAUGCUGUGCGCCACACCAUCCAGGUGUACCGGCUCUCCAAGUACAACACGGAAGAAUUCAUCACAGUCUACCCCACCGACC,1.94
GCAGGAAGUAAAAACAAAUGGAAAUGCUUCGGAUAGUGGCAGGGGUGGGGGUUGCUAAGGAAAGGGUGGGAUGGGAGUGGGUAAAGAGUG,1.21
AAGUCCUGUGCUACACAUCGUAUGUACCGAAUCGGAAAAAAAGGAAAAAGGAAAGGAAAGUAUUAUGUUACGCCGUUCGGAUCUGCACUU,-1.83
CACAGACAACACGCACCCACACAGACACAGAGGGAAGGGGUUGGGAUGGGGACAGGGUGCACAGCCGGGCGGGGUAGGACCCCAGCCCCU,-1.45
AGUCCUGUGCUACACAUCGUAUGUACCGAAUCGGUUUUUUUGGUUUUUGGUUUUUGGAAAGUAUUAUGUUACGCCGUUCGGAUCUGCACU,-2.46
AGUCCUGUGCUACACAUCGUAUGUACCGAAUCGGGUUUGGGUUUUUGGGUUUUUGGGAAAGUAUUAUGUUACGCCGUUCGGAUCUGCACU,-1.66
UGUGCUACACAUCGUAUGUACCGAAUCGGGGCCCCCCCGGGCCCCCCCGGGCCCCCCCGGGGAAAGUAUUAUGUUACGCCGUUCGGAUCU,-0.79
UGGAGCCCAACCUGUGCCGCUCAGUCCUCAUUGCCAACACGGUCCGGCAGAUCCAAGAGGAGAUGACGCAGGAUGGGACGUGGCGCACAG,-2.43
CCUGUGCUACACAUCGUAUGUACCGAAUCAAAUUUUUUUAAACCCCCAAAUUUUUUUAAAAAAGUAUUAUGUUACGCCGUUCGGAUCUGC,-0.361
UGGCCCUGGUGGGAUGCGGGGAGGAAGAGGUGGCCUCAUGGAUCGUGGUGGUCCCGGUGGAAUGUUCAGAGGUGGCCGUGGUGGAGACAG,0.84

# Study 2 — technique: RNA Bind-n-Seq; form: RNA; medium: in vitro; concentration: 365 nM; baseline: no-protein control; reading: higher = stronger binding
# Target: RNA binding protein fox-1 homolog 2, RRM domain, GST-SBP tag (RBFOX2, Homo sapiens, UniProt O43251-10, residues 100-194)
# Setting: natural RNA segment, single round, ends assumed
# Shared flanks, not repeated: GGGAGUUCUACAGUCCGACGAUC … UGGAAUUCUCGGGUGCCAA
# Target sequence (chain): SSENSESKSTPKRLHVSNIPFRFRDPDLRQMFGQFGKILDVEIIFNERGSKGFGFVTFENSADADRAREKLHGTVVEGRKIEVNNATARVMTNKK
Strand,RBNS enrichment (R)
UUUGAGUGAGUCAGGGGAAACACCCUCUUCCUACUUACACUUGUCUCGCCCACCCCCCAUUCUCUCCUUGGUUUCUUGGCCCUUUACUGUGGCUGUACUUCAGAUCAUCA,0.458
CUCAUCCUCUUCUGAGACUGUUGAUUUUAAACACUUGAUUGUGAACGAAGAGCUUCUAUGAAAACCCUCACCUUUCCAUGUCCCAAAAACCAACACAAGUCCCUGGGGCG,0.205
AAGGAGGAAGCUCACUCACUCAAGAGCACCUCCAUGUACCGCGUCACACUGGAAGGAGGCUAAGUCUCAGUCUUCAAGUUCUGGACUUUCUUCUCUCCAGUGGCACUUGU,0.241
UCAUUUAAAGCAAAAUUAGGUAGAACAAACCAGUCAGUAAGAUUAGAAGUAUUACAGAGAAUCAUCCUUUUAAUCACAGAUCUUAUUUUGGAGUAAAACAAACUUCUAGC,0.61
CUUUUCUAAAAGUGGUAUCUGUUAUCCACAAUGUAUUUUAGUUAUUCCCACAAGUCAGGGGUCCAGAUAAAAUGAGGGUUAUCAGCUAACUGAUAUGCUAUCAUUGAGGU,0.286
GGUAUAGAAUCAUAUUUGGUGUUUGCCUGUAAGACAACUAGGGGAGCCCUUUAAGGAAAAGAUCAGUGUCCUGCACCCCUGGGGCAAAUGACAAGGGUAUUAUCAUGGAG,0.299
UUAUUUUGCUUAAGUCAACAGUGCCCUAAAACUCCAAACUCAAAUGCAGUCAAUUAUUCACGCCAUGCACAGCAUAAUUUGCUCCUUUGUGUGGAGUGGUGUGUCAGCCC,0.386
UCAAGACCAGCUUGGCCAACAUGGUGAAACCUCAUCUCUACUAAAAAUACAAAAAUUAGCCAAGUGUGAUGGCACAUACCUGUAAUCCCAGCUACUUGGAAUUGGAAAUC,0.331
CUUGAGACUGUCCCACAGUGCUCCUCUAGAGGCUGCUGGGGCCACCCUGACAUCACUCAGCACUCACUUGCUACCAAUUCUAUUUAUUUCGGAAUUACAAGAUAGCGGGA,0.296
GAUAAACAAACUUCUCAAGCAAAAAGAAAAGAAAAAUGAGUAGUGUGGCUGCCGCGGAGUGUGCCCUGGCCCUGGGCACUGAAGUGUUACAGUGGCUCGUUGCUUCCCUC,0.342
GAAACUGAUUCCAAGGACAUCCACAUAGCUGAGCCAAGAUGCUCCAGGCCAGUGGCAGGUGGACUGGAAGAGGCCUCUCCACUGAGCCUGUGUUCUGUGCUUCAGGCUCU,0.342
UCAUCUGCAGGGUCCUGUGCCUCUGAAGUUCUAGCCAUGAGGUUUCCAGGUAGGACAGCUGCUCCCCAAGCCUCCUGAGGACACAGGAAGAGACGGAAGGAGCACCUUGA,0.438

# Study 3 — technique: protein-binding microarray; form: double-stranded DNA, one strand shown; medium: in vitro; concentration: 0.8 µM; setting: whole 60-bp probe, no competitor; reading: higher = stronger binding; shared flanks, not repeated: … GTCTTGATTCGCTTGACGCTGCTG
# Target: Centromere-binding protein 1, full length, N-terminal tag (CBF1, Saccharomyces cerevisiae, UniProt P17106, residues 1-351)
# UniProt P17106, sequence (whole entry, looked up): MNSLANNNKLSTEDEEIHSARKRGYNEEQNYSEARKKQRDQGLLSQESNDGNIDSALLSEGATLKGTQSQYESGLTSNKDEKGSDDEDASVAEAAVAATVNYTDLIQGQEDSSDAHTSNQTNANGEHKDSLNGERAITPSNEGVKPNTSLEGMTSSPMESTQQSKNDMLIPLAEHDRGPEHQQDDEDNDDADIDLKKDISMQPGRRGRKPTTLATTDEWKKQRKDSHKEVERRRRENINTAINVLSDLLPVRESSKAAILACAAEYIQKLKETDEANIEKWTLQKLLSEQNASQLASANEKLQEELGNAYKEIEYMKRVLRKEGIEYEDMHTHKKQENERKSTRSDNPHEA
Strand,fluorescence intensity
TGTACGAAGCTATACGCTCACATTATAGTAGTTAGG,517 a.u.
CTAGTTTCATCTGGAAAAGATGGAGACTGAAAATTC,543 a.u.
GAAAAACTACATTATCTCGTGAAGAATATTTAATAG,621 a.u.
GAACAAACTTATGCCAACGTGACCATTTATTATTAG,3730 a.u.
CTAGTGCTTCTCCACGTGGATACGTACCGTTGTTTC,3300 a.u.
CTACGTTTGTACAAGCACGACATACTAAGACATTTC,528 a.u.
CCTAACTACTATAACCACATGCGATAGCTTCGTACA,594 a.u.
TGTACGAAGCTATCTCATATGATTATAGTAGTTAGG,529 a.u.
CTAATATGATGAGATCATGTGCAAATGATTAACTTC,1870 a.u.
GAAATTTTGTTGTAGCTCGTGGAGTTATCCATTTAG,542 a.u.
CTATAGTTTTGTCTCAACGTGTATTTTATCGGTTTC,544 a.u.
CTAGCAACAACTCATGATGTAATAGGATAATGTTTC,516 a.u.
GAAACATTTAACTATAACATCAGTCGTATGTTATAG,540 a.u.
CTACGAAAAGGTGCTCACGTTATAAGGCTAACATTC,671 a.u.
GAAGCTTTGAAGGTTAACGTCACATCTGCTGAGTAG,537 a.u.
GAATAATCTTCGTATCGCGTGATGTGTTAGAAGTAG,1600 a.u.
GAATTATTCTTCTCTGATGCACGTTCTTTAGACTAG,604 a.u.
TGTACGAAGCTATGTCACCATCTTATAGTAGTTAGG,501 a.u.
GAAAATGTGTGCCGGGTCATGAGATGCCAAACTTAG,633 a.u.
CTAAAGCGTCTATATCATGTGTATTTTAAGCGATTC,735 a.u.
CTATTGTTCGCAACCCACGTCTTGACCGACGGTTTC,499 a.u.
GAATTGGAGTTCCATCACCATCAATATAGCAACTAG,514 a.u.
GAAGACTTTTTATTCCTCGTGGCAAAGAATGGCTAG,762 a.u.
GAATATTATTTAATGCACATGTTAATGGACGGTTAG,850 a.u.
CCTAACTACTATAAGTGTGTGACATAGCTTCGTACA,593 a.u.

# Study 4 — technique: RNA Bind-n-Seq; form: RNA; medium: in vitro; concentration: not given; baseline: input RNA pool; reading: higher = stronger binding
# Target: RING finger protein unkempt homolog, zinc fingers 1-6, GST-SBP tag (UNK, Homo sapiens, UniProt Q9C0B0, residues 30-357)
# Setting: RNA with constant flanks, human-mouse chimeric sites, ends assumed
# Shared flanks, not repeated: GGGAGUUCUACAGUCCGACGAUC … CAACAGAGGAUUGAGCAUCA
# Residues (chain): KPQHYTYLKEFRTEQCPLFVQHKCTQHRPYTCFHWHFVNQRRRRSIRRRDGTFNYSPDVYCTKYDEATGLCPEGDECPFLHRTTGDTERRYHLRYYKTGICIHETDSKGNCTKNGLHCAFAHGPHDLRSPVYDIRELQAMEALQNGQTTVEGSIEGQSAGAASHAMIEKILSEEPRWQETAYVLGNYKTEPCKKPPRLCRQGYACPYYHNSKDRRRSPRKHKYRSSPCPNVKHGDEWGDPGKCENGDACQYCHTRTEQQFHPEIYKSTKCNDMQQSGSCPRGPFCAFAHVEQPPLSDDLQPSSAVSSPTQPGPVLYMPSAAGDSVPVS
Strand,bound/input enrichment [ratio]
AAAGAACCUCUCUCUGAUGAAGAUGAGGACAGUGAUGAUGAUGUUGAACCCAUUUCUGAAUUUCGAUUUGUGCCCAGUGAUAAGUCAGCGUUGGAGGCGAUGUUCACAGCAAUGUGUGAG,0.239
UUCAAAGGCUGUGUUAUCUGUGUCAUUUCAUAAGUAACUCUGGGGGAGGGAAAUUCUGUUCUUUUGUUUAAUUUUCCCCCAGAUAAAGCCAAAGUGUGUGUUGAAGAACUGAGAAAAAAU,0.315
UUAAUCCCCUUUACUGCUCCCCCACUUCUCAUGGUAAUAACAAAGUCUUAUAUCCCCGUCCUAGCUUUCACUCAGAUGGCUUAUGGAGCCGGUUUCCUAUCUUUCUUGGGAGGGAUCAGA,0.19
UGACAAGCACGAGCAUCAGCCAUGCCUUUCCUUGACAUACAGAAAAAGUUCGGCCUUAGCCUGGACCGGCACUUUAUGUUCCUAAGCGCAGAACAGCCCUAUAAGAACGCCGCUCGGUGC,0.0962
GUACUGCAGCAGCAGGGCAAGCUGCAGGAAGCUCUGAUGCAUUAUAAGGAGGCUAUUCGAAUCAGUCCUACCUUUGCUGAUGCUUAUUCUAAUAUGGGAAACACUCUAAAGGAGAUGCAG,0.202
AAAGAGAAACUAAAGCAAACUGAUUGAAAGAGGAUUGGCAAAGAGAAUUUCAUAGAGAAACUAGGAUUUAUUAGCAAACAUGAGUUAUAUUCCAGAGGCAUCUCAGAACCCCAGCCAAAC,9.92
AGGAGGAGGUUAAAGGGUGAGAGUGGGGUGGAAGACUGUGUCAUGGCCCUAGAAACCCUGUUCAGUGUUCUGCUUUCUCUGUGCAGACUGAUGGCCCCUUACACGCCCUUUCUGACUGAG,0.0479
UAUCCAACUUUCUUGCCACAUUUUGAAUUCCAAGACAUUAUUCCUCCAGAUGACUUCCUAACGAGUGAUGAAGAGCAAGAUUUGGUUUUAUUUGGAACUAUGAGAGGACAAGUUGUUGGA,0.114
GAGCGUCUUGCCCGCACCGGGAUCAUAGUGACCACGAGUGAGGCUGUCCUCCUACAGCUGGUGGCUGACAAAGACCACCCGAAGUUCAAGGAAAUUCAGAACCUAAUUAAGGCGAGUGCC,0.111
CUUUUUGAAUCAUUCAAGAGUUUUGAAGGUCUCUUUUAUUUUCUGGGGUCCAUUGUUAACUUUAGCCAGGACCCAGAUGUGCACUUUAAAUAUAUUCAGGCGGCUUGCAAGACUGGGCAA,0.459
AGAGCCCAGGAUGUUGAUGCUACAAAUCCAAAUUACGAAAUUAUGUGUAUGAUCAGAGACUUUAGAGGGAGCUUGGAUUAUAGACCACUAACAACAGCAGAUCCUAUUGAUGAACAUAGG,1.09

# For quick reference, copied from above (study 1):
Strand,log2 enrichment
GCAGGAAGUAAAAACAAAUGGAAAUGCUUCGGAUAGUGGCAGGGGUGGGGGUUGCUAAGGAAAGGGUGGGAUGGGAGUGGGUAAAGAGUG,1.21
AGUCCUGUGCUACACAUCGUAUGUACCGAAUCGGUUUUUUUGGUUUUUGGUUUUUGGAAAGUAUUAUGUUACGCCGUUCGGAUCUGCACU,-2.46
AAGUCCUGUGCUACACAUCGUAUGUACCGAAUCGGAAAAAAAGGAAAAAGGAAAGGAAAGUAUUAUGUUACGCCGUUCGGAUCUGCACUU,-1.83
CCUGUGCUACACAUCGUAUGUACCGAAUCAAAUUUUUUUAAACCCCCAAAUUUUUUUAAAAAAGUAUUAUGUUACGCCGUUCGGAUCUGC,-0.361
